# Published values collected from several papers.
# Numbers after ± are the reported error.
# TDP1: Tyrosyl-DNA phosphodiesterase 1 (TDP1, Homo sapiens, UniProt Q9NUW8)
# Chain of UniProt Q9NUW8 (whole entry, looked up): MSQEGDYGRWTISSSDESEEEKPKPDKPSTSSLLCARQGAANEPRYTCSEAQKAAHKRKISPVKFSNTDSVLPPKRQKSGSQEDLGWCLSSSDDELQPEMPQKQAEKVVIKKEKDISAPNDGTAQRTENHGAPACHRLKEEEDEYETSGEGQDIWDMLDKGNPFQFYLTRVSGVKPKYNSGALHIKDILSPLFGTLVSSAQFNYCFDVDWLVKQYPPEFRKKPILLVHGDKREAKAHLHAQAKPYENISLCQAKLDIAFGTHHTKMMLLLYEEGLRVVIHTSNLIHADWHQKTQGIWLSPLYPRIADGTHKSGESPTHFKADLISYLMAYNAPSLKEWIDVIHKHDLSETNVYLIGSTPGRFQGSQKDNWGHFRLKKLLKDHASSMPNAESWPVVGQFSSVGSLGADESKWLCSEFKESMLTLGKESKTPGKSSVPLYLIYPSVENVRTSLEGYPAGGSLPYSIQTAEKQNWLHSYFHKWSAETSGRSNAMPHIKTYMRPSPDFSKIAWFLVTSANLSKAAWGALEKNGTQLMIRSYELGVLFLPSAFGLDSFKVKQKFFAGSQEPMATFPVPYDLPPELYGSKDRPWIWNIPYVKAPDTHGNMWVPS
SMILES,target,test,system,setting,how to read,endpoint,result
C=CC(=O)Nc1cccc(Cn2ncc3cnc(Nc4cnn(CCOC)c4)nc32)c1,human p38-gamma,KINOMEscan,,100 nM,relative to: control,binding,86%
CNC(=O)C1CCN(c2cc(C)c(F)cc2NC(=O)c2ccc(-c3cc(O)ccc3C)c(C)c2)CC1,FLT3 ITD (human),"binding, KINOMEscan",,1000 nM,,percent of control,100%
Nc1ncc(-c2cc(-c3cnn(CC(F)(F)F)c3)ncc2F)nc1C(=O)NC1CNCC(F)C1 (stereo not drawn),MAP4K2,KINOMEscan,,1 µM,relative to: DMSO control,remaining binding,100%
c1ccc(-c2n[nH]cc2-c2ccnc3ccccc23)nc1,IKS1 (Candida albicans),"kinase binding, MIB/MS competition",Candida albicans lysate,1 µM,relative to: DMSO,log2 fold change,-0.1
Cc1nc(N)nc2c1C(=O)N[C@@H](c1ccc(F)cc1-c1cccc(OCCF)n1)C2,Hsp90,in vitro autoradiography,rat brain slice,"11 kBq/mL, room temperature, together with: blocker 10 µM",,blocking,97 ± 2%
Cc1ccc(-n2cc(CSc3nc4ccccc4n3Cc3cn(-c4ccc(C)cc4)nn3)nn2)cc1,tubulin,"tubulin polymerization, inhibitor",MDA-MB-231,"50, 100, 500 ppm",,geometric mean inhibition,2.96%
C=CC(=O)N1[C@@H](c2ccc3c(c2)OCO3)c2[nH]c3ccccc3c2C[C@H]1C(=O)N1CCN(C)CC1,CCNE1 WT-3xFLAG:CDK2 complex,"co-IP TMT proteomics, refers to: ZCCHC6",HEK-293T,"20 µM, 6 h",relative to: DMSO,log2 fold change,-0.0145
Cn1ccc2cc(-n3c(=O)[nH]c4sc5c(c4c3=O)CCCC5)ccc21,rat sodium channel,radioligand binding,,"10 µM, site 2",,inhibition,21%
C#CCOc1ccc(C=NOCc2ccc(-c3nc4cc(-c5ccccc5)ccn4c3Nc3ccc(C(=O)O)cc3)cc2)cc1 (mixture of isomers),TDP1,"enzyme activity, inhibitor",,"100 µM, unpurified compound",,inhibition,47.3%
NCCCn1cc(COc2cc(C(=O)Nc3cc(OCCN)c4ccccc4n3)nc(C(=O)Nc3cc(OCCN)c4ccccc4n3)c2)nn1,c-kit2 G-quadruplex DNA,FRET melting,,"1 µM, pH 7.4, together with: 60 mM potassium",,ΔTm,7.2 ± 0.4 K
Cc1ccc(C=NOCc2ccc3nc(-c4ccccc4)c(Nc4ccc(C(=O)O)cc4)n3c2)cc1[N+](=O)[O-] (mixture of isomers),TDP1,"enzyme activity, inhibitor",,"100 µM, unpurified compound",,inhibition,25.8%
CCC(=O)N(C)c1ccc(Cl)c(Cl)c1,Kv potassium channel,radioligand binding,,10 µM,,inhibition,< 10%

# Repeated from above:
SMILES,target,test,system,setting,how to read,endpoint,result
Cc1ccc(C=NOCc2ccc3nc(-c4ccccc4)c(Nc4ccc(C(=O)O)cc4)n3c2)cc1[N+](=O)[O-] (mixture of isomers),TDP1,"enzyme activity, inhibitor",,"100 µM, unpurified compound",,inhibition,25.8%
Nc1ncc(-c2cc(-c3cnn(CC(F)(F)F)c3)ncc2F)nc1C(=O)NC1CNCC(F)C1 (stereo not drawn),MAP4K2,KINOMEscan,,1 µM,relative to: DMSO control,remaining binding,100%
